Measured values collected from several papers.
Each line is one published result; not all experiments were run side by side. ± marks the error that the study gave. Converted amounts (≈) assume the structure as drawn.
Organism: Mycobacterium tuberculosis

SMILES = Cc1ccc(C2OC(c3ccc(C)cc3)C(C)C(=NOCc3cn(-c4ccccc4)nn3)C2C)cc1 (stereo not shown); test = resazurin; test system = H37Rv; conditions = 6500 µg/mL; quantity = inhibition; value = 76%
SMILES = CCOC(=O)/C=C1/SC(N/N=C/c2c(-c3ccc(F)cc3)nc3ncccn23)=NC1=O; test = MABA; test system = H37Rv ATCC 27294; quantity = MIC; value = 12.5 µg/mL (≈ 28.5 µM)
SMILES = Cc1cc(=O)oc2cc(OCCCCn3cc(COc4ccc(N5C(N)=NC(N)=NC56CCCCC6)cc4)nn3)ccc12; test = microbial growth; test system = ATCC27294 H37RV; quantity = MIC50; value = 1.6 µM
SMILES = CC1C(=NNC(=O)c2ccncc2)C(C)C(c2ccc(Br)cc2)OC1c1ccc(Br)cc1 (stereo not shown); test = resazurin; test system = H37Rv; conditions = 6500 µg/mL; quantity = inhibition; value = 95%
SMILES = CN[C@@H]1[C@H](O)[C@H](NC)[C@H]2O[C@]3(O)[C@H](O[C@@H]2[C@H]1O)O[C@H](C)C[C@H]3NC(=O)Cc1cc(Cl)ccn1; test system = MDR and XDR isolates; quantity = MIC50; value = 1.6 µg/mL
SMILES = Cc1cc(S(=O)(=O)N(C)CC(=O)Nc2ccn(C)c(=O)c2)c2[nH]ncc2c1; test system = wild type; conditions = concentration not given, 4 days, pH 5.5; quantity = survival; value = no effect
SMILES = Cc1[nH]c(=O)c(CNC(=O)c2ccc(C(F)(F)F)nc2)c2c1CCCC2; test = microbial growth, resazurin; test system = H37RV; conditions = 20 µg/mL; quantity = inhibition; value = 100%
SMILES = CC1C(=NOCc2cc(-c3ccc(Cl)cc3)no2)C(C)C(c2ccc(Br)cc2)OC1c1ccc(Br)cc1 (stereo not shown); test = resazurin; test system = H37Rv; conditions = 6500 µg/mL; quantity = inhibition; value = 92%
SMILES = FC(F)(F)c1ccccc1Nc1nc(-c2cccnc2)cs1; test = bacterial growth, Alamar blue; test system = H37Rv; conditions = 10 µg/mL; quantity = inhibition; value = 0%
SMILES = CC1=NN(CNc2ccc(C(=O)O)c(O)c2)C(=O)/C1=N/Nn1c(-c2ccccc2)nc2ccccc2c1=O; test system = H37Rv; how to read = relative to: IC50 NIH 3T3 over MIC; quantity = selectivity index; value = 0.86
SMILES = CN[C@@H]1[C@H](O)[C@H](NC)[C@H]2O[C@]3(O)[C@H](O[C@@H]2[C@H]1O)O[C@H](C)C[C@H]3NC(=O)Cc1ccccn1; test system = MDR and XDR isolates; quantity = MIC50; value = 2.3 µg/mL
SMILES = Cc1ccc(S(=O)(=O)N(CCc2nnc(S)o2)c2ccc(Cl)cc2)cc1; test = BACTEC radiometric; test system = H37Rv; conditions = 12.5 µg/mL; quantity = inhibition; value = 45%
SMILES = Cc1ccn2c(-c3csc(Nc4ccccn4)n3)c(C)nc2c1; test = microbial growth; conditions = 5 days; quantity = MIC50; value = 1.7 µM
SMILES = CCOC(=O)c1cnc(N/N=C/c2c(-c3ccc(C)cc3)nc3ncccn23)s1; test = MABA; test system = H37Rv ATCC 27294; quantity = MIC; value = 3.12 µg/mL (≈ 7.68 µM)
SMILES = Cc1[nH]c(=O)c(CNC(=O)c2ccc(N(C)C)cc2)c2c1CCCC2; test = microbial growth, resazurin; test system = H37RV; conditions = 25 µg/mL; quantity = inhibition; value = 26.9%
SMILES = CN(C)c1ccc(-c2nc3ccccc3n2CCCOc2ccccc2)cc1; test = ATP level, BacTiter-Glo luminescence; test system = H37Rv; conditions = 2 days, hypoxic shift-down; quantity = IC50; value = 9.3 µM
SMILES = O=S(=O)(c1ccccc1)N(CCc1nnc(S)o1)c1ccccc1; test = BACTEC radiometric; test system = H37Rv; conditions = 12.5 µg/mL; quantity = inhibition; value = 30%
SMILES = O/C(=C\C(=S)S)c1ccccc1; test system = H37Rv ATCC 27294; how to read = relative to: IC50 Vero cells over MIC100; quantity = selectivity index; value = 3.45
SMILES = Cc1nc(=O)c2cc(CN(C)c3cccc(C(=O)N[C@@]4(C(=O)O)CCC[C@H](C(=O)O)C4)c3)ccc2[nH]1; test system = pptT knockdown without ATc; quantity = MIC90; value = 29 µM (≈ 14.3 µg/mL)
SMILES = O=C(Cc1cccs1)N[C@@H]1C(=O)N2C(C(=O)O)=C(CSc3cccc[n+]3[O-])CS[C@H]12; test system = H37Rv; conditions = non-replicating; quantity = MBC; value = 3.1 µM (≈ 1.44 µg/mL)
SMILES = Cc1[nH]c(=O)c(CNC(=O)c2ccc(C(F)(F)F)cn2)c2c1CCCC2; test = microbial growth, resazurin; test system = H37RV; conditions = 20 µg/mL; quantity = inhibition; value = 22.3%
SMILES = COC(=O)[C@H](CCCNC(=O)OC(C)(C)C)NC(=O)c1ccc(NCc2ccc3nc(N)nc(N)c3c2Cl)cc1; test system = pptT knockdown without ATc; quantity = MIC90; value = < 0.1 µM
SMILES = Cc1ccc(S(=O)(=O)N(CCc2nnc(S)o2)c2ccccc2)cc1; test = BACTEC radiometric; test system = H37Rv; conditions = 12.5 µg/mL; quantity = inhibition; value = 73%
SMILES = C#CCN(Cc1ccc2[nH]c(C)nc(=O)c2c1)c1ccc(C(=O)N[C@@H](CCC(=O)O)C(=O)O)cc1; test = microbial growth; test system = H37RV; quantity = MIC90; value = > 100 µM
SMILES = Cc1cc(S(=O)(=O)N(C)CC(=O)Nc2ccc(N3CCOCC3)c(Cl)c2)c2[nH]ncc2c1; test system = intrabacterial; conditions = 10 µM, 24 h; how to read = relative to: untreated; quantity = pyruvate level; value = 25.6 ± 0.03 fold
SMILES = Cc1cc(C2CC2)[nH]c(=O)c1CNC(=O)c1ccc(C(F)(F)F)nc1; test = microbial growth, resazurin; test system = H37RV; conditions = 20 µg/mL; quantity = inhibition; value = 5%
SMILES = Cc1cc(Oc2nc(N3CC[C@@H](c4ccncc4)C3)ncc2F)[nH]n1; test = time-lapse microscopy; test system = Erdman tdTomato; conditions = 0.6 µM, up to 144 h; quantity = lysed cells; value = ~50%
SMILES = Cc1nc(=O)c2cc(CN(C)c3ccc(C(=O)Nc4n[nH]c5ccccc45)s3)ccc2[nH]1; test system = pptH knockout; quantity = MIC50; value = 63.2 µM
SMILES = Cc1[nH]c(=O)c(CNC(=O)c2ccc(OC(F)(F)F)cc2)c2c1CCCC2; test = microbial growth, resazurin; test system = H37RV; conditions = 25 µg/mL; quantity = inhibition; value = 64.2%
SMILES = COc1cc2c(=O)c(C(=O)NCCNCCO)cn(Cc3ccccc3)c2cc1OCc1ccc(C(F)(F)F)cc1; quantity = MIC90; value = 5 to 13 µM (≈ 2.85 to 7.4 µg/mL)
SMILES = Cc1nc(=O)c2cc(CN(C)c3cccc(C(=O)Nc4n[nH]c5ccccc45)c3)ccc2[nH]1; test system = pptT knockdown with ATc; quantity = MIC50; value = 50.8 µM
SMILES = Nc1c2c(nc3sc4c(c13)CCCCC4)CCCC2; test = microbial growth; conditions = 5 days; quantity = MIC50; value = 1.7 µM
SMILES = C#CCN(Cc1ccc2nc(N)nc(N)c2c1)c1ccc(C(=O)N[C@@H](CCC(=O)OCC)C(=O)OCC)cc1; test = microbial growth; test system = H37RV; quantity = MIC90; value = 0.03 µM (≈ 0.016 µg/mL)
SMILES = O=C1c2ccccc2C(=O)N1c1nnc(-c2ccc(Cl)cc2)s1; test = bacterial growth; test system = H37Rv; quantity = IC50; value = > 200 µM
